Experimental data collected from several papers.
A part holds a random share of what one study measured.

Series 1
Target: Phosphate system positive regulatory protein PHO4, full length, GST-tagged (PHO4, Saccharomyces cerevisiae, UniProt P07270, residues 1-312)
Technique: competition protein-binding microarray
Molecule type: double-stranded DNA, one strand shown
Matrix: in vitro
Concentration: 2 µM
Setting: whole 60-bp probe, lowest competitor level
Together with: Cbf1 competitor, 0.05 µM
Reading: higher = stronger binding
Target sequence (chain): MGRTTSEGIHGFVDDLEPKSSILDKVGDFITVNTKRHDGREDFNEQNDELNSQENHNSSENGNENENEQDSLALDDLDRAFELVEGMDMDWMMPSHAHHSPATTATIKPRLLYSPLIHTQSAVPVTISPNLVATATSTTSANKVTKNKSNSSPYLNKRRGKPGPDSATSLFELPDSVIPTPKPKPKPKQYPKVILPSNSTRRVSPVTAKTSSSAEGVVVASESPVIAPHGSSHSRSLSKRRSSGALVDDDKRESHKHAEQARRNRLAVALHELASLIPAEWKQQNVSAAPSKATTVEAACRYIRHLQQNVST
With `TTTTGCTAAAATGAACTTGTGTCGCAAATTCCGTTCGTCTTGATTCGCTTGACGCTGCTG` the fluorescence intensity was 4080 a.u.
For `CTAACGAAGGTTTGTTCAGTGGGTGACAAGCCAAGTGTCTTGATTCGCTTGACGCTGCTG`, the fluorescence intensity was 3460 a.u.
With `CCACCACTCCAACAGAGCGTGTTGAAATTCAAAAATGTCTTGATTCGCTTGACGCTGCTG` the fluorescence intensity was 8180 a.u.
The fluorescence intensity of `AAATTACTAAGTTTTCACGTGTGGTACCCCGTATGAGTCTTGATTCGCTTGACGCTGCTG` is reported as 12700 a.u.
With `GAAATTTTACTGATTGGCGTGGGACAGTTTTTGTTAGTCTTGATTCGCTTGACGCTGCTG` the fluorescence intensity was 5840 a.u.
For `AGCACTTACGGTTACAACGTGAGCCCTGTCGAAGAAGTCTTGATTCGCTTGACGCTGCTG`, the fluorescence intensity was 9150 a.u.
`CGTCCTAGTGATTGTACAGTGGGTGCCATGAGGAAGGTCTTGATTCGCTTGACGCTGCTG` gave a fluorescence intensity of 6380 a.u.
The fluorescence intensity of `CGTCCTAGTGATTGTCACGCGACTTCCATGAGGAAGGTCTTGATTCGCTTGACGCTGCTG` is reported as 7050 a.u.

Series 2
Target: Sal-like protein 4, full length isoform A (SALL4, Homo sapiens, UniProt Q9UJQ4, residues 1-1053)
UniProt Q9UJQ4, sequence (whole entry, looked up): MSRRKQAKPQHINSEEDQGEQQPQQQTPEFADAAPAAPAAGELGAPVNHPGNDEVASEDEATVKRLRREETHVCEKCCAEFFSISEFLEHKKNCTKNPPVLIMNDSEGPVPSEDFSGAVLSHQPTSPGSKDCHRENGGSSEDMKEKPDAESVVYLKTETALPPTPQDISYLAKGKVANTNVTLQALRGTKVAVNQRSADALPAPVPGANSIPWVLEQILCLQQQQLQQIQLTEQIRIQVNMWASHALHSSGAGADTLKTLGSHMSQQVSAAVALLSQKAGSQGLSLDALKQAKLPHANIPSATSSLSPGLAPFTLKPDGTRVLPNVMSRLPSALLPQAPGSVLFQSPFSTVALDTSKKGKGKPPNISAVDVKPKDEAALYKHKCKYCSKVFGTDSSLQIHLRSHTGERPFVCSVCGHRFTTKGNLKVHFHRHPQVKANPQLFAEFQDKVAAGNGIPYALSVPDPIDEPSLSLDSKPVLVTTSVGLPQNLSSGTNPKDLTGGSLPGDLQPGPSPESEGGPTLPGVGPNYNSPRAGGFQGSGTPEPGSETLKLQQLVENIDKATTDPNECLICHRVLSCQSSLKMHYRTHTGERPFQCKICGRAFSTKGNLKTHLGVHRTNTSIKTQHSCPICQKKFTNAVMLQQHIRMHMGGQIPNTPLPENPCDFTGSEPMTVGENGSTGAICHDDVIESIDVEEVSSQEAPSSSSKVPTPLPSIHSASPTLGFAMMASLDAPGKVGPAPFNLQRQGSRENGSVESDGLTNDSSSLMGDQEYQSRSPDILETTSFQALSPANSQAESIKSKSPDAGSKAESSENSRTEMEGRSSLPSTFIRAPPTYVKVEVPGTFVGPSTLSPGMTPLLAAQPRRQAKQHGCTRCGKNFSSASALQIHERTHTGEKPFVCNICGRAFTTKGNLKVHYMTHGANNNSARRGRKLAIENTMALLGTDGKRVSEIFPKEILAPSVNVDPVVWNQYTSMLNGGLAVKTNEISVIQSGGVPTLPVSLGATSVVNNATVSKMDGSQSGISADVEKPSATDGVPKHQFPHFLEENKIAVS
Technique: universal PBM
Molecule type: double-stranded DNA, one strand shown
Matrix: in vitro
Concentration: 600 nM
Setting: 8-mer, flanks averaged, mean of replicates
Reading: higher = stronger binding
For `AATGCAAC`, the E-score was 0.173.
The E-score of `GTATCGGA` is reported as 0.102.
`GCGCATAC` gave an E-score of -0.0557.
`ATCTGGGA` gave an E-score of -0.0496.
With `ACATACGC` the E-score was 0.097.
For `ACGGCGCG`, the E-score was -0.201.
The E-score of `AACGTGAG` is reported as 0.0867.
The E-score of `CCACTCGG` is reported as -0.255.

Single results of other studies
For `PSMD3 (Homo sapiens, UniProt O43242)`, cross-linked residues read “E40 to K65” (PAAF1 (Homo sapiens, UniProt Q9BRP4); cross-linking MS; cell fractions; together with: DMTMM).
With `COc1cnc(C(=O)N2CCCC23CCOC3)nc1` (stereo not drawn) the remaining compound was greater than 100% (mouse, microsomes or S9; 2 µM, 0.5 h).
`ESYT2 (Homo sapiens, UniProt A0FGR8)` — result for interaction screen: “cross-linked” (ESYT1 (Homo sapiens, UniProt Q9BSJ8); cross-linking MS; hits only).
Under cross-linked residues, `NDUFA9 (Homo sapiens, UniProt Q16795)` is recorded as “K370 to K76” (TOPAZ1 (Homo sapiens, UniProt Q8N9V7); cross-linking MS; cell fractions; together with: DSSO).
`ARCN1 (Homo sapiens, UniProt P48444)` — result for cross-linked residues: “E30 to K771” (COPB1 (Homo sapiens, UniProt P53618); cross-linking MS; cell fractions; together with: DMTMM).

A few entries again (series 2):
For `ACGGCGCG`, the E-score was -0.201.
The E-score of `AACGTGAG` is reported as 0.0867.
The E-score of `CCACTCGG` is reported as -0.255.
